# Measured values from different studies.
# Lines come from different studies, so protocols differ. ± gives the spread as reported.
# Uncharacterized protein: Uncharacterized protein (Equus caballus, UniProt Q38RB9)
# Cytochrome P450 2A13: Cytochrome P450 2A13 (Homo sapiens, UniProt Q16696)
# UniProt Q16696, sequence (whole entry, looked up): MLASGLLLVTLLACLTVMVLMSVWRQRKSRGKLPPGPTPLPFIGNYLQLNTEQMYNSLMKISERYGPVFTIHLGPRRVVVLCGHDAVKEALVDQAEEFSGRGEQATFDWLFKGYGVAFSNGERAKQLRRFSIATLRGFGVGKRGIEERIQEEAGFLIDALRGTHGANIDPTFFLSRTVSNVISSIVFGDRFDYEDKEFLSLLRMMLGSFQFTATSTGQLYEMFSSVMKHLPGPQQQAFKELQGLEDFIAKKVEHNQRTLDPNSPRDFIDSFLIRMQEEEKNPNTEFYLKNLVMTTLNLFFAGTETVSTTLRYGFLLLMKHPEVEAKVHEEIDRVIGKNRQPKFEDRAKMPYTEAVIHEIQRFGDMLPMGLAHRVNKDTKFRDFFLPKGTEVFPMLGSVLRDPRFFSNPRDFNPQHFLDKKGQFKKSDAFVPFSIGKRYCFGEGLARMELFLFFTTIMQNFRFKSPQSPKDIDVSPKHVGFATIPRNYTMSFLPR
# ACTA1 pyrene-labeled: Actin, alpha skeletal muscle, pyrene-labeled (ACTA1, Oryctolagus cuniculus, UniProt P68135)
# 4'-phosphopantetheinyl transferase PptT: 4'-phosphopantetheinyl transferase PptT (Mycobacterium tuberculosis, UniProt O33336)
# gag-pol reverse transcriptase: Gag-Pol polyprotein, reverse transcriptase (gag-pol, Human immunodeficiency virus 1, UniProt P03366)
# SCRIB PDZ3 domain: Protein scribble homolog, PDZ3 domain (SCRIB, Homo sapiens, UniProt Q14160)
# UniProt Q14160, sequence (whole entry, looked up): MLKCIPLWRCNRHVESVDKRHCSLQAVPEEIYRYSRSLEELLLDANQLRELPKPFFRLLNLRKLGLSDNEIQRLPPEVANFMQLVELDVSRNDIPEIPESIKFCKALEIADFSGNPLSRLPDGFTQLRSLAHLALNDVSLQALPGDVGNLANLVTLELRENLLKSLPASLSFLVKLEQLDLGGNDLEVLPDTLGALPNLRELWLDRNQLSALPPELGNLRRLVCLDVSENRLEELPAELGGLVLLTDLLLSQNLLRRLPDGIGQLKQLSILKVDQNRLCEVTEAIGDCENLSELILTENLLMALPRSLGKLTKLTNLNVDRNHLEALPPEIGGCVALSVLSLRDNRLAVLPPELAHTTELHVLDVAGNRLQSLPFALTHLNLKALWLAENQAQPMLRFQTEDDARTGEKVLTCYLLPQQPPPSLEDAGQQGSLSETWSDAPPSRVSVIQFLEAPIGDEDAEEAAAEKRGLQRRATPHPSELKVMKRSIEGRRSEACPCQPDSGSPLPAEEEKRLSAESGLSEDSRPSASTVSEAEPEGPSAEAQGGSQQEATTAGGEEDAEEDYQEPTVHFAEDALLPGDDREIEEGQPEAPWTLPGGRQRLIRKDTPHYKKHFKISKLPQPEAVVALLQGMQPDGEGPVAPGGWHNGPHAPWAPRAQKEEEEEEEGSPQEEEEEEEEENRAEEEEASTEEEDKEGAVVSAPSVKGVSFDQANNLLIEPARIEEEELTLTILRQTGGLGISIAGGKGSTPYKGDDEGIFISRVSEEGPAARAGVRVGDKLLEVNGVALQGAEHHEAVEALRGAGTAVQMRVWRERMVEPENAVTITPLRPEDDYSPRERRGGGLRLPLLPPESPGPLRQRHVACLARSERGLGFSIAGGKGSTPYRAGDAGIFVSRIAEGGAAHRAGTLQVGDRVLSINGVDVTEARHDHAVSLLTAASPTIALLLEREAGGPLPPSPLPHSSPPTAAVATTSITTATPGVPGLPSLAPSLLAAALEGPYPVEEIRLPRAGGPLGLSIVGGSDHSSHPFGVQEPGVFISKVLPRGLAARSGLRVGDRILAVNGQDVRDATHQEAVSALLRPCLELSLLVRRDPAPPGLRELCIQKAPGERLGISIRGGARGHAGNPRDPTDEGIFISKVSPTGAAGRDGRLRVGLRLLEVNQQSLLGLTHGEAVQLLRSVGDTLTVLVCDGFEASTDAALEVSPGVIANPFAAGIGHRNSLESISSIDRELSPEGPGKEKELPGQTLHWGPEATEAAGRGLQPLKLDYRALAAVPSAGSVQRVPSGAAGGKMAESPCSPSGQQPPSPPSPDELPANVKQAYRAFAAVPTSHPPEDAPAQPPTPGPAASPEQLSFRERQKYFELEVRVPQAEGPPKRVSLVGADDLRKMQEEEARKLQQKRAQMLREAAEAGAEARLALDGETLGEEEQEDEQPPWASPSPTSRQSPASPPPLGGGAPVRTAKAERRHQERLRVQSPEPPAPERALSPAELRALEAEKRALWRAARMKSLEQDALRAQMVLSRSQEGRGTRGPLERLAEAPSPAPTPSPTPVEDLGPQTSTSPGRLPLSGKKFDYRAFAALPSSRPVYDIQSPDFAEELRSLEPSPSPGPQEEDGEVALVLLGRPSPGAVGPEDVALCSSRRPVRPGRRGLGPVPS
# UniProt Q00987, sequence (whole entry, looked up): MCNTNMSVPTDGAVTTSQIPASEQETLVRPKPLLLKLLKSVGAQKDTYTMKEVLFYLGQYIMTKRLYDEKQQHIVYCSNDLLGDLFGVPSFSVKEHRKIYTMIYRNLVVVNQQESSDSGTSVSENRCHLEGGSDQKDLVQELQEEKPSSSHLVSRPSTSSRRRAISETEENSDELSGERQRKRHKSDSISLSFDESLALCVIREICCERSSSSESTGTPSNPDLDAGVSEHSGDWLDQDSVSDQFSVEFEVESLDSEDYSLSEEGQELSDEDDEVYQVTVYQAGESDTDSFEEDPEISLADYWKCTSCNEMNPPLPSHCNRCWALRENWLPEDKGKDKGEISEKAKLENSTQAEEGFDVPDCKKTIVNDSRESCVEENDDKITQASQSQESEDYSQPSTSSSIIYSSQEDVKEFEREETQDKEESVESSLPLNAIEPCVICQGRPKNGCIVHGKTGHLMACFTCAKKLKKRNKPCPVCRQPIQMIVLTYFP
# UniProt Q8BHN3, sequence (whole entry, looked up): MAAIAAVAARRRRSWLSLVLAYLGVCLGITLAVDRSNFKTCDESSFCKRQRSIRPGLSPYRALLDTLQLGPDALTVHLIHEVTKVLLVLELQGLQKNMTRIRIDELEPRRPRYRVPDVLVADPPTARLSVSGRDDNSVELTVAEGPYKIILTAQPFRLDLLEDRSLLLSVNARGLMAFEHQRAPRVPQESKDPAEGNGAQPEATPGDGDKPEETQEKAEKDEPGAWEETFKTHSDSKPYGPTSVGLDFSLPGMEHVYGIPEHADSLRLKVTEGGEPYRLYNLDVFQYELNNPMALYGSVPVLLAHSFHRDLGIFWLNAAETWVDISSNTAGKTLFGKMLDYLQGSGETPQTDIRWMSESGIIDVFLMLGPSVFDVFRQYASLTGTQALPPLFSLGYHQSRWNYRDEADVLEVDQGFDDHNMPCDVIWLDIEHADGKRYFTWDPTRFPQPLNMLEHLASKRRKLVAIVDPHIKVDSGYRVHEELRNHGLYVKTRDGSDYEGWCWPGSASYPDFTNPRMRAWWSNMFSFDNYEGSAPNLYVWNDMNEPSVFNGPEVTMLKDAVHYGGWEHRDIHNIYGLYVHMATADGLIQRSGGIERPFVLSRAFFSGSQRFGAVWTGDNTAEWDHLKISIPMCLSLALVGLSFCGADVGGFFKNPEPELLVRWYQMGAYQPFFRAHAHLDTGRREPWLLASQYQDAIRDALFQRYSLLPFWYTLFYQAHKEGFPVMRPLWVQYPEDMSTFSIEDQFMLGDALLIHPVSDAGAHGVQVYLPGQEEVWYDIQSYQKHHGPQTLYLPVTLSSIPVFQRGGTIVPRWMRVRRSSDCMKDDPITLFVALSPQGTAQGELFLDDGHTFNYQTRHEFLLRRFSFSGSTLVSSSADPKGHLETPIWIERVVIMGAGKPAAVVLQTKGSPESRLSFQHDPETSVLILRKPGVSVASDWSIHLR
# UniProt P00441, sequence (whole entry, looked up): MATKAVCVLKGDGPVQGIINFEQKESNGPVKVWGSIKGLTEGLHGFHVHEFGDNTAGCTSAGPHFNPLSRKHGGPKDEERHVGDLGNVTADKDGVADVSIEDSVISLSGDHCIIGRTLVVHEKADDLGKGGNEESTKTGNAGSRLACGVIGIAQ
# UniProt Q14994, sequence (whole entry, looked up): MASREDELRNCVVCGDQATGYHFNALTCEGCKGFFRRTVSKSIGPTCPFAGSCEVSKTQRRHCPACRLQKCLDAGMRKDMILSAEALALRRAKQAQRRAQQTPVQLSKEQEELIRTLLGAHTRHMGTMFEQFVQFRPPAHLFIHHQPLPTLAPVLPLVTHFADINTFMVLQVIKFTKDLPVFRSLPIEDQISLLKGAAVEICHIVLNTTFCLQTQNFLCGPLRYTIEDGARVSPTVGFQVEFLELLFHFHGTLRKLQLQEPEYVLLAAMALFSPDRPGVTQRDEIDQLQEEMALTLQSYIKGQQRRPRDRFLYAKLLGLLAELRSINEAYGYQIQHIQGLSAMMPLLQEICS
# UniProt P07687, sequence (whole entry, looked up): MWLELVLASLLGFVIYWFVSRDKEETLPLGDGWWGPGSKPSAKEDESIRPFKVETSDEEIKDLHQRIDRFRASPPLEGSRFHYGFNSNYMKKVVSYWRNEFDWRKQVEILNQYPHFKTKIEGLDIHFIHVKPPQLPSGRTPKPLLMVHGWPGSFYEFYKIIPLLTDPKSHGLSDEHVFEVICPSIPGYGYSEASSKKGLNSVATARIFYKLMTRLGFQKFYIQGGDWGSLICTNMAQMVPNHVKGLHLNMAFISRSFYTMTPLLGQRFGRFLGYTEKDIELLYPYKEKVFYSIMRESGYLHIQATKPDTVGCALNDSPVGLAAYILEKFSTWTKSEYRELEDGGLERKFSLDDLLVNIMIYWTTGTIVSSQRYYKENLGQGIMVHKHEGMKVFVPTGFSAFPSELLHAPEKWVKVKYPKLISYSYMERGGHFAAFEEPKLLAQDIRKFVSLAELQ
# UniProt P00772, sequence (whole entry, looked up): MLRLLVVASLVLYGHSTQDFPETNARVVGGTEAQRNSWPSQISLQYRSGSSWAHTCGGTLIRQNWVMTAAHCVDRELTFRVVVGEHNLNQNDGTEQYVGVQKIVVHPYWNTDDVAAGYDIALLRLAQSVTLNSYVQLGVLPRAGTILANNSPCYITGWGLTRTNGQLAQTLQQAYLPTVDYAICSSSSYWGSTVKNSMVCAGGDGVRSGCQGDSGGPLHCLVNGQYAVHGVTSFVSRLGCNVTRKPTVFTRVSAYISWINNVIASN
SMILES,target or system,assay,test system,conditions,how to read,endpoint,result
CC[C@H](C)[C@H](NC(=O)[C@H](Cc1c[nH]cn1)NC(=O)[C@H](Cc1ccc(O)cc1)NC(=O)[C@H](CC(C)C)NC(=O)[C@@H](NC(=O)CNC(=O)[C@H](CC(=O)O)NC(=O)[C@H](Cc1ccccc1)NC(=O)[C@H](CC(=O)O)NC(=O)[C@H](C)N)C(C)C)C(=O)O,Uncharacterized protein,"peptide binding, competitor, competitive radioligand binding",purified horse MHC class I,pH 7,,IC50,0.092 µM
c1ccc2c(c1)ccc1c3ccccc3ccc21,Cytochrome P450 2A13,"enzyme activity, inhibitor",,"20 min, pH 7.4",,IC50,> 200 µM
COc1ncccc1-c1cnn2ccc(N3CCN(C(=O)OC(C)C)CC3)nc12,"MAOA (Homo sapiens, UniProt P21397)",liability screen,,,,IC50,> 30 µM
CC(C)C[C@@H]1NC(=O)[C@H](CC(C)C)NC(=O)[C@H](Cc2c[nH]c3ccccc23)NC(=O)[C@H](CO)NC(=O)[C@H](Cc2c[nH]c3ccccc23)NC(=O)[C@@H]2CCCN2C(=O)[C@H](CC(C)C)NC(=O)[C@H](Cc2c[nH]cn2)NC(=O)[C@@H]2CCCN2C(=O)[C@H](CC(N)=O)NC(=O)[C@H](C)NC(=O)[C@H](Cc2ccc(O)cc2)NC(=O)[C@H](CS)NC(=O)[C@H](CCCCNC(=O)CN2CCN(CC(=O)O)CCN(CC(=O)O)CCN(CC(=O)O)CC2)NC1=O [lutetium-177 labelled],,,"Balb/c mouse, female, 4T1 tumour, kidney","intravenous, 3.7 MBq, 1 h",,tissue uptake,11.2 ± 1.77 %ID
CO[C@]1([C@@H]2CSC(=O)N2CCCO)C[C@H]2C[C@@H](CC[C@H](C)/C=C\C=C\CC/C(C)=C\C(=O)O2)O1,ACTA1 pyrene-labeled,"actin polymerization, pyrene actin",,,,IC50,8.55 ± 0.574 µM
COP(=O)(OC1CCCCC1)OC1CCCCC1,"had (Sphingobium sp. TCM1, UniProt A0A077JBW9)",,,,,IC50,120 ± 10 µM
C[C@H]1CN(c2n[nH]c3nc(N[C@H]4CC[C@H](NS(=O)(=O)CCC(F)(F)F)CC4)ncc23)CCO1,"WNK1 (Homo sapiens, UniProt Q9H4A3)",biochemical,,,,IC50,≥ 20 µM
O=C(c1ccc(Cl)cc1)N1CCN2C(=O)N(OC(=O)N3CCOc4ccccc43)C(=O)C2C1 (centres unmarked),"Dipeptidyl peptidase 2 (Homo sapiens, UniProt Q9UHL4)",MS-based ABPP,SW-620 conditioned medium,"10 µM, 1 h, 37 °C","reference: compound over DMSO, lower = more inhibition",median protein ratio,0.99
O=C(O[C@@H]1Cc2c(O)cc(O)cc2O[C@@H]1c1cc(O)c(O)c(O)c1)c1cc(O)c(O)c(O)c1,"Superoxide dismutase [Cu-Zn], fully metallated (SOD1, Homo sapiens, UniProt P00441)","enzyme activity, inhibitor, XTT",,,,IC50,> 75 µM
CC(C)C[C@H](NC(=O)[C@H](CCC(=O)O)NC(=O)[C@H](CCC(=O)O)NC(=O)[C@H](CCC(N)=O)NC(=O)[C@H](CCC(=O)O)NC(=O)[C@@H](N)CC(C)C)C(=O)N[C@@H](CC(=O)O)C(=O)N[C@@H](CCCCN)C(=O)N[C@@H](CC(N)=O)C(=O)O,Uncharacterized protein,"peptide binding, competitor, competitive radioligand binding",purified horse MHC class I,pH 7,,IC50,0.09 µM
CCCCCCNC(=N)NC(=O)Nc1c(CC)cccc1CC,4'-phosphopantetheinyl transferase PptT,inhibitor,,,,IC50,> 100 µM
COc1cc(Nc2ncc(F)c(Nc3ccc4c(n3)NC(=O)C(C)(C)O4)n2)cc(OC)c1OC,"MAOB (Homo sapiens, UniProt P27338)",,,,,IC50,> 10 µM
COC1CCCOC12CCN(C(=O)c1cnc3c(O)cccn3c1=O)CC2 (centres unmarked),"Metallo-beta-lactamase type 2, Δ35 (blaNDM-1, Klebsiella pneumoniae, UniProt C7C422)",inhibitor,,,,IC50,36 ± 2 µM
O=C1CSC(c2ccc(Cl)cc2)N1c1nc(-c2ccc(S(=O)(=O)N3CCCC3)cc2)cs1 (centres unmarked),gag-pol reverse transcriptase,,,,,IC50,0.12 µM
COc1ccc(N2C(=O)N(c3c(C)cccc3Cl)Cc3cnc(Nc4ccc(C5CCN(C)CC5)cc4OC)nc32)nc1,"PDGFRA (Homo sapiens, UniProt P16234)","kinase activity, inhibitor",,"0.5 µM, kinase PDGFR-ALPHA",,inhibition,99%
c1ccccc1,Cytochrome P450 2A13,,,"20 min, pH 7.4",,IC50,> 200 µM
CC[C@H](C)[C@H](NC(=O)[C@H](CC(C)C)NC(=O)[C@@H](NC(=O)[C@H](CCCCN)NC(=O)[C@@H](NC(=O)[C@@H](NC(=O)[C@H](CO)NC(=O)[C@H](CCC(N)=O)NC(=O)[C@@H](N)CO)[C@@H](C)O)C(C)C)C(C)C)C(=O)O,Uncharacterized protein,"peptide binding, competitor, competitive radioligand binding",purified horse MHC class I,pH 7,,IC50,0.65 µM
CO[C@]1([C@@H]2CSC(=O)N2C)C[C@H]2C[C@@H](CC[C@H](C)/C=C\C=C\CC/C(C)=C\C(=O)O2)O1,ACTA1 pyrene-labeled,"actin polymerization, pyrene actin",,,,IC50,> 10 µM
CC(C)C[C@H](NC(=O)[C@H](CC(=O)O)NC(=O)[C@@H](NC(=O)[C@H](CO)NC(=O)[C@H](C)NC(=O)[C@H](CCCCN)NC(=O)[C@H](C)NC(=O)[C@@H](NC(=O)[C@H](CC(C)C)NC(=O)[C@@H](N)C(C)C)[C@@H](C)O)[C@@H](C)O)C(=O)O,SCRIB PDZ3 domain,"binding, fluorescence polarization",solution,Scribble PDZ3 domain,,Kd,11.3 µM
Cc1ccccc1NC(=O)Nc1ccc(CC(=O)N[C@@H](CCCCNC(=O)/C=C/c2cccnc2)C(=O)N[C@@H](CCCC(=O)O)C(=O)NC2(C(=O)NCCOCCOCCOCCOCC(=O)N[C@@H](CCCCNC(=S)Nc3ccc(CCCN(CCN4CCN(CP(=O)(O)O)CCN(CP(=O)(O)O)CC4)CC(=O)O)cc3)C(N)=O)CCCCC2)cc1 [gallium-68 labelled],,,"mouse, kidney","intravenous, 4 h post-injection",,tissue uptake,10.1 ± 0.6 %ID/g
O=[N+]([O-])c1cc(-n2nccn2)ccc1NCCCCCCN[C@H]1C[C@](O)(CO)[C@@H](O)[C@H](O)[C@H]1O,"Ganab (Mus musculus, UniProt Q8BHN3)","enzyme activity, inhibitor",,with: 4-methylumbelliferyl substrate,,IC50,< 0.001 µM
O=c1c(O)c(-c2ccccc2)oc2cc(O)cc(O)c12,Cytochrome P450 2A13,"enzyme activity, inhibitor",,"20 min, pH 7.4",,IC50,30 to 90 µM
CC(=O)N[C@@H](CCCCN)C(=O)N[C@H](C(=O)N[C@@H](Cc1ccccc1)C(=O)N[C@H]1CSCCCCCCS[C@H]2C[C@@H](C(N)=O)N(C2)C(=O)NC[C@H](CC(C)C)NC(=O)NC[C@H](CC(C)C)NC(=O)[C@H](C)NC(=O)[C@H](Cc2c[nH]c3ccccc23)NC(=O)[C@H](Cc2ccc(O)cc2)NC(=O)[C@H](CCC(=O)O)NC1=O)[C@@H](C)O,"E3 ubiquitin-protein ligase Mdm2, with p53 (MDM2, Homo sapiens, UniProt Q00987)",inhibitor,,,,IC50,0.00302 µM
CC(C)CCC[C@@H](C)[C@H]1CC[C@H]2[C@@H]3C[C@@H](n4cncc4CCN)[C@@]4(O)C[C@@H](O)CC[C@]4(C)[C@H]3CC[C@]12C,"Epoxide hydrolase 1 (Ephx1, Rattus norvegicus, UniProt P07687)","enzyme activity, inhibitor",,,,IC50,> 100 µM
O=C1CSC(c2c(Cl)cccc2Cl)N1c1cccc(S(=O)(=O)Nc2nccs2)c1 (centres unmarked),gag-pol reverse transcriptase,,,,,IC50,> 4 µM
Oc1ccc2ccc3cccc4ccc1c2c34,Cytochrome P450 2A13,"enzyme activity, inhibitor",,"20 min, pH 7.4",,IC50,> 180 µM
CO[C@H]1C[C@H](O[C@@H]2/C(C)=C/C[C@@H]3C[C@@H](C[C@]4(CC[C@H](C)[C@@H](C5CCCCC5)O4)O3)OC(=O)[C@@H]3C=C(C)/C(=N/O)[C@H]4OC/C(=C\C=C\[C@@H]2C)[C@]43O)O[C@@H](C)[C@@H]1O,"Nuclear receptor subfamily 1 group I member 3 (Homo sapiens, UniProt Q14994)","receptor activity, inhibitor",cells,,,IC50,29 ± 17 µM
CCNC(=NC(=O)OC(C)(C)C)NC(=O)Nc1c(CC)cc(C(=O)NCc2ccc(OC)cc2)cc1CC,4'-phosphopantetheinyl transferase PptT,inhibitor,,,,IC50,> 100 µM
C[C@@H](O)[C@@H](CO)NC(=O)[C@@H](CCCNC(=N)N)NC(=O)[C@@H]1CCCN1C(=O)[C@@H]1CSSC[C@H](NC(=O)[C@H](Cc2ccccc2)NC(=O)CN2CCN(CC(=O)O)CCN(CC(=O)O)CCN(CC(=O)O)CC2)C(=O)N[C@@H](Cc2ccc(O)cc2)C(=O)N[C@@H](Cc2ccccc2)C(=O)N[C@@H](CCC(N)=O)C(=O)N[C@@H](CC(N)=O)C(=O)N1 [gallium-68 labelled],,,"healthy Wistar rat, spleen","intravenous, 8 MBq, 120 min, individual animals",,tissue uptake,0.09 %ID/g
COc1ccc(-c2ccc(Cc3cnc(Nc4ccc(C#N)cc4)o3)cc2)cc1,gag-pol reverse transcriptase,"enzyme activity, inhibitor",HIV-1,,,IC50,> 10 µM
COc1ccc(C[C@H](NC(=O)[C@H](C)NC(=O)CN2CCOCC2)C(=O)N[C@@H](CC2CCC(F)(F)CC2)C(=O)[C@@]2(C)CO2)cc1,"PSMB7 (Homo sapiens, UniProt Q99436)","inhibitor, competitive ABPP",Raji cell lysate,constitutive proteasome β2c,,IC50,> 10 µM
CC[C@H](C)[C@H](NC(=O)[C@H](Cc1ccccc1)NC(=O)[C@H](CCC(=O)O)NC(=O)[C@H](CCCNC(=N)N)NC(=O)[C@H](C)NC(=O)[C@H](C)NC(=O)[C@H](CCC(N)=O)NC(=O)[C@H](CCC(=O)O)NC(=O)[C@H](CCC(=O)O)NC(=O)[C@H](CC(C)C)NC(=O)[C@H](Cc1ccc(O)cc1)NC(=O)[C@H](CO)NC(=O)[C@H](CO)NC(=O)[C@@H](NC(=O)[C@H](CC(=O)O)NC(=O)[C@H](CO)NC(=O)[C@@H](NC(=O)[C@H](Cc1ccccc1)NC(=O)[C@@H](NC(=O)CNC(=O)[C@H](CCC(=O)O)NC(=O)[C@H](C)NC(=O)CCc1c[nH]cn1)[C@@H](C)O)[C@@H](C)O)C(C)C)C(=O)N[C@@H](C)C(=O)N[C@@H](Cc1c[nH]c2ccccc12)C(=O)N[C@@H](CC(C)C)C(=O)N[C@H](C(=O)N[C@@H](CCCNC(=N)N)C(=O)NCC(=O)N[C@@H](CCCNC(=N)N)C(=O)N[C@@H](CCCCNC(=O)COCCOCCNC(=O)COCCOCCNC(=O)CC[C@H](NC(=O)CCCCCCCCCCCCCCCCC(=O)O)C(=O)O)C(=O)NCC(=O)NCC(=O)N[C@@H](CO)C(=O)N[C@@H](CCCCNc1c(NCCCCCN(O)C(=O)CCC(=O)NCCCCCN(O)C(=O)CCC(=O)NCCCCCN(O)C(C)=O)c(=O)c1=O)C(=O)O)C(C)C [zirconium-89 labelled],,gamma counting,"rat, skin at injection site","intravenous, 3 nmol/kg, 24 h",,tissue uptake,0.16 %ID/g
CCOC(=O)[C@H]1Cc2c(cc([N+](=O)[O-])cc2[N+](=O)[O-])[C@@H](O)[C@@]12C(=O)Nc1ccc(F)cc12,"MDM2 (Homo sapiens, UniProt Q00987)",,,,,IC50,0.57 ± 0.08 µM
O=C1CSC(c2c(F)cccc2Cl)N1c1nc(-c2ccc(S(=O)(=O)N3CCOCC3)cc2)cs1 (centres unmarked),gag-pol reverse transcriptase,,,,,IC50,3.15 µM
CCC[C@H](NC(=O)[C@@H]1[C@H]2CCC[C@H]2CN1C(=O)[C@@H](NC(=O)[C@@H](NC(=O)c1cnccn1)C1CCCCC1)C(C)(C)C)C(=O)C(=O)NC1CC1,"CELA1 (Sus scrofa, UniProt P00772)","enzyme activity, inhibitor",,with: FP-biotin 1 µM,,IC50,0.222 µM
COc1cc2c(Oc3ccc4[nH]c(C)cc4c3F)ccnc2cc1OCC1(N)CC1,,,paediatric recurrent refractory sarcoma,8 mg,,grade 1 or 2 abdominal pain,25%
NC(N)=NC(=O)c1nc(Cl)c(N2CCCCCC2)nc1N,"Genome polyprotein, 3D RNA polymerase (Coxsackievirus B3, UniProt P03313)","RNA polymerase activity, inhibitor, single AMP incorporation",,Mg2+ preincubation,,IC50,> 500 µM
O=C1CSC(c2ccc(F)cc2)N1c1cccc(S(=O)(=O)Nc2nccs2)c1 (centres unmarked),gag-pol reverse transcriptase,,,,,IC50,2.23 µM
CC(C)C[C@H](NC(=O)[C@H](CO)NC(=O)[C@@H](NC(=O)[C@@H](NC(=O)[C@@H](NC(=O)[C@H](Cc1ccccc1)NC(=O)[C@@H](NC(=O)[C@H](CC(=O)O)NC(=O)[C@H](CCC(=O)O)NC(=O)[C@@H]1CCCN1)[C@@H](C)O)[C@@H](C)O)C(C)C)[C@@H](C)O)C(=O)O,SCRIB PDZ3 domain,"binding, fluorescence polarization",solution,Scribble PDZ3 domain,,Kd,10.4 µM
CC[C@H](C)[C@@H]1NC(=O)[C@@H]2CCCN2C(=O)[C@H](CC(C)C)NC(=O)[C@H](CC(C)C)NC(=O)CNC(=O)[C@@H](NC(=O)[C@@H](NC(=O)[C@H](CC(=O)O)NC(=O)CNC(=O)[C@@H](NC(=O)[C@H](C)NC(=O)CNC(=O)[C@H](CCCCN)NC(=O)[C@H](CC(C)C)NC(=O)[C@H](CC(C)C)NC(=O)[C@H](CCCCN)NC(=O)CNC(=O)[C@@H](NC(=O)[C@@H](N)CC(C)C)C(C)C)C(C)C)C(C)C)CSSC[C@@H](C(=O)O)NC1=O,,"RNA-seq, measured: Ighv1-80 mRNA","mouse traumatic brain injury, frontal cortex and hippocampus",dose not given,reference: TBI plus compound vs TBI,log2 fold change,-5.4
O=C(CP(=O)(O)O)NO,enolase (ENO1 and ENO2),"enzyme activity, inhibitor, NADH-linked",,with: 2-phosphoglycerate,,IC50,~0.02 µM
